Measured values pooled from the literature.
Parts stem from different laboratories: compare values within a part only.

Sample 1
Target: Interferon regulatory factor 5, full length, phosphomimetic (IRF5, Homo sapiens, UniProt Q13568-2, residues 1-514, S451D/S453D/S456D/S462D)
Technique: protein-binding microarray
Molecule type: double-stranded DNA, one strand shown
Medium: in vitro
Concentration: 940 nM top
Notes: 60-bp whole probe
Together with: salmon DNA 0.4 mg/ml
Baseline: random background probes
Reading: higher = stronger binding
Constant ends, left off below: GCCTAGCAC … GTCTTGATTCGCTTGACGCTGCTG
Oligonucleotide | fitted relative affinity [z-score]
CTTTCTCTGCTCTTTTCAACAGTGCTA | 2.71
TTAGGTTTCGGTCACGGTTAGTGCTAG | 15.1
GACGGTTTCGATACTGGGGACGTGCTA | 12
CCACTGCAAAAACATCCTGGGTGCTAG | 0.142
GACGGTATCCTACTGTTGACGTGCTAG | -0.202
GACGATTTCCGGTATCGAGACGTGCTA | 2.21
TTAGGTCTCCTTCTCCTATAGTGCTAG | 0.759
TGAGGTATCGGTTTCGGTTAGTGCTAG | 11.2
TCAACTCTGCCTCTAACACTGTGCTAG | 0.571
TTAGGACTACTACTGCTTTAGTGCTAG | -0.0308
TCATTTCTCAACCTCCAACTGTGCTAG | 1.44
TTAGCACTGGGGACTGGATTAGTGCTA | -0.18
TTAGGTTTCGACTTTCGGTTTGTGCTA | 8.93
GACGGTCTCCTTTTCCCGACGTGCTAG | 1.74
CTCACCTCAGCCTCCCAAGTGTGCTAG | 0.371
TTAGGACTGGGTGTCGGTTAGTGCTAG | -0.075

Sample 2
Target: Sal-like protein 4, full length isoform B (SALL4, Homo sapiens, UniProt Q9UJQ4-2, residues 1-616)
Technique: universal PBM
Molecule type: double-stranded DNA, one strand shown
Medium: in vitro
Concentration: not given
Notes: 8-mer, flanks averaged, mean of replicates
Reading: higher = stronger binding
Construct (chain): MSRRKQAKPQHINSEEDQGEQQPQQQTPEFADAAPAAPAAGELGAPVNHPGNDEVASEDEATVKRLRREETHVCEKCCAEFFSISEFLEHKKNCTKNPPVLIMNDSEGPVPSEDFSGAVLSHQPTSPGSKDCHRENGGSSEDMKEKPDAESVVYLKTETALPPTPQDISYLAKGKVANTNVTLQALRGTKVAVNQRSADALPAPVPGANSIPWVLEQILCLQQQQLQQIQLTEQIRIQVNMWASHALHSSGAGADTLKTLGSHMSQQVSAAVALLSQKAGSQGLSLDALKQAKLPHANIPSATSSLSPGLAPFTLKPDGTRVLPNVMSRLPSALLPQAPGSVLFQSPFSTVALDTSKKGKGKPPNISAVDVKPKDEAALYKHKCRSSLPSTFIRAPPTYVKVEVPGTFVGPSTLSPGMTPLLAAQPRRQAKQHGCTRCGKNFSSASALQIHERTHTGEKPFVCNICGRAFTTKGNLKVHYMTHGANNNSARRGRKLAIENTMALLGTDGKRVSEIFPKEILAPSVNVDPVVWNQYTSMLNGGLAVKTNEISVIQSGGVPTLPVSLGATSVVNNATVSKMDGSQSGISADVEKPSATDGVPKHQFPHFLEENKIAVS
Oligonucleotide | E-score
AGAGGGTG | -0.0729
TATCTGGA | 0.119
TGTGCCAA | 0.0801
CACTCGCG | -0.181
AAGTTTCG | -0.0494
AGCTTTAT | 0.0708
CCTCCTAA | -0.0211
AGGCATTC | -0.16
CGGTATAG | -0.108
CCCTAACG | 0.049
GCTAGACC | -0.268
CTTTAATA | 0.39
GAAACACA | 0.153
CCGGCACG | -0.247
GAGCAGCA | -0.0873
AGAGGGGC | -0.28
GGTTTGCA | -0.0978
GGCATTTA | 0.0283
GCACATAC | -0.0185
ACACGTCT | 0.0425
GATGATGA | 0.0904
AAACAATG | 0.228
GGCGCGAA | -0.137
GGGACAGA | -0.237
GAGGCCCC | -0.316

Sample 3
Target: Histone acetyltransferase KAT6A, both winged helices, GST fusion (KAT6A, Homo sapiens, UniProt Q92794, residues 1-181)
Technique: protein binding microarray
Molecule type: double-stranded DNA, one strand shown
Medium: in vitro
Concentration: not given
Notes: 8-mer, flanks averaged, mean of 2 arrays, mostly near background
Baseline: not given
Reading: higher = stronger binding
Residues (chain): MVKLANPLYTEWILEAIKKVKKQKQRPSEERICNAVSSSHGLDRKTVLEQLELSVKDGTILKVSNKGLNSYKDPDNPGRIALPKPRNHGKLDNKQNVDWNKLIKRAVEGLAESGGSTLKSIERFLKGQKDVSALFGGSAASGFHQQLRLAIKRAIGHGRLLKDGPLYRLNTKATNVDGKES
Oligonucleotide | E-score
CTCCGCAA | 0.101
GTGTGGAA | -0.0857
AGCCGGCA | 0.304
GAAGGATC | -0.105
GAAATTGA | 0.0453
ATCCCAAC | -0.233
ACAGGGGG | -0.172
CGGGAAGC | 0.254
ATCGAGCC | 0.166
GCTTATGA | -0.00741
ATGATCAG | -0.159
GGTATACA | -0.0445
AGAATCTA | -0.0865
CCGCCGAC | 0.281
AGAGTTTG | -0.136
ACGGACTC | 0.242
CTCCGTCA | 0.0173
ATCTCCGA | 0.0922
ATGAACTG | 0.049
AATAGATC | -0.0528
GCGATCAC | 0.2
CTTCAATC | 0.0156
AAGAATCG | 0.169
ACGAGCAG | -0.0932
CTAGCTTA | -0.107

Sample 4
Target: RING finger protein unkempt homolog, zinc fingers 1-6, GST-SBP tag (UNK, Homo sapiens, UniProt Q9C0B0, residues 30-357)
UniProt Q9C0B0, sequence (30-357, looked up): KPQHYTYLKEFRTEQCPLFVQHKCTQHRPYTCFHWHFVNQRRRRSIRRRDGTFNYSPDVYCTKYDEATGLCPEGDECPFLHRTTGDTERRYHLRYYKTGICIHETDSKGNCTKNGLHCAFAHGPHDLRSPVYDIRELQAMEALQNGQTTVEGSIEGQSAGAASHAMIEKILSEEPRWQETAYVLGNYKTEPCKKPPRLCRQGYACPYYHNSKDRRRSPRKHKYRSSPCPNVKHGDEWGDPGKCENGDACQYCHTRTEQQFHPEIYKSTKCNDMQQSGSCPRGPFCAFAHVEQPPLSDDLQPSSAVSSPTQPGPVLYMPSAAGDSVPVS
Technique: RNA Bind-n-Seq
Molecule type: RNA
Medium: in vitro
Concentration: not given
Notes: RNA with constant flanks, human and mouse sites, ends assumed
Baseline: input RNA pool
Reading: higher = stronger binding
Oligonucleotide | bound/input enrichment [ratio]
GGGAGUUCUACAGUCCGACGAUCGUUUAGAAGUGCAGUAGAGAGAAAGCAAUUGGCCCUCAUUCUCUGGACAGACUUUUGAUGGAAAGAAUUUCUCUGAUAGGUGUUUGACUGGUUAUCUAAACGUUGCUGUUAAGUAGUCUUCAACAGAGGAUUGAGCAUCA | 0.834
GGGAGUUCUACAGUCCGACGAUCAAGGGUAAUUAUUCGGAGCGGGUCGGCGCUGGUGCCCCGGUGUACCUGGCGGCUGUGCUAGAAUAUCUGACUGCUGAGAUCCUGGAAUUGGCUGGUAAUGCGGCCCGCGACAAUAAGAAGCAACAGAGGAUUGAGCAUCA | 0.162
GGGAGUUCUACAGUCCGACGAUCGACAGAAACAUGUCUUGACUGUUAGUUGUCCACAAAUCUUCAGUAUUUUCUCCACUUCAUUUUUAAGAAAGGAAGCAACAGAUAGAUGUUGCUCUUUCACCUGGGUGUCUGGGCUCAAGCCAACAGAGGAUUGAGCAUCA | 0.321
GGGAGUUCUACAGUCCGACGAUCCAUGACAAAGCUUCAAAGGAUGCCAAAUAUGAACUAGUGAAAGCACUUGCCAAUUCCAAGACAAUUGCAGAAAUCUUUGGGAACCCAAAUUAUUUGAGGCUCAGAACUUACCUGAGUGAACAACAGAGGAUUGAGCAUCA | 0.238
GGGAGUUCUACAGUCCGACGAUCGAGAACUUAGAGGAUGCUUCUCAAUGCAAGAAGUUAAGAAGCUCUUUCGAAUCAAGUUGUCCCCAACAGUGGAUAAAAUAUUUUGAUAAAAGAAGAGACUACUUAAAAUUCAAAGAAAAACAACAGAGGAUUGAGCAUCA | 0.217
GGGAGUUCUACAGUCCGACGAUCAUAUUACUGCUGUGUAGAAACAUUAGUAGUGUUUUCAUUUUAGGUCCAAGUAAGAUGUUUUUAGUGAUAUACCUGCAGAAUGGCUCUGUCUUAAAACUGUGUAGAAAAACCCUAAUCUUUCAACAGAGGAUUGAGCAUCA | 2.36
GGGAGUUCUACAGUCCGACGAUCUGGUAUACAGACCAGUUUUAGGACUGGUAAUCCAACAGGGACUUACCAGAAUGGUUAUGAUAGCACUCAGCAAUACGGAAGUAAUGUUCCAAAUAUGCACAAUGGUAUGAACCAACAGGCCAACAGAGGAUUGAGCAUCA | 0.141
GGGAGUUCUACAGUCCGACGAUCAACAUUUCUACUCUACCAGAGAGUCUUUUAUCCAGUCUUGUAAAAUUGAAUAGCUUGACCUUAGCUAGAAAUUGCUUCCAGUUAUAUCCAGUGGGAGGUCCAUCUCAGUUUUCCACCAUUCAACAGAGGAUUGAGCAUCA | 0.376

Excerpt of the above (sample 1):
Oligonucleotide | fitted relative affinity [z-score]
CTTTCTCTGCTCTTTTCAACAGTGCTA | 2.71
TTAGGTTTCGGTCACGGTTAGTGCTAG | 15.1
GACGGTTTCGATACTGGGGACGTGCTA | 12
CCACTGCAAAAACATCCTGGGTGCTAG | 0.142
GACGGTATCCTACTGTTGACGTGCTAG | -0.202
GACGATTTCCGGTATCGAGACGTGCTA | 2.21
TTAGGTCTCCTTCTCCTATAGTGCTAG | 0.759
TGAGGTATCGGTTTCGGTTAGTGCTAG | 11.2
TCAACTCTGCCTCTAACACTGTGCTAG | 0.571
TTAGGACTACTACTGCTTTAGTGCTAG | -0.0308
